Measurements of several laboratories.
Parts stem from different laboratories: compare values within a part only. “And” joins repeats or separate records; there may be more than shown. pIC50: −log10 of the molar value.
Chain of UniProt P53350 (whole entry, looked up): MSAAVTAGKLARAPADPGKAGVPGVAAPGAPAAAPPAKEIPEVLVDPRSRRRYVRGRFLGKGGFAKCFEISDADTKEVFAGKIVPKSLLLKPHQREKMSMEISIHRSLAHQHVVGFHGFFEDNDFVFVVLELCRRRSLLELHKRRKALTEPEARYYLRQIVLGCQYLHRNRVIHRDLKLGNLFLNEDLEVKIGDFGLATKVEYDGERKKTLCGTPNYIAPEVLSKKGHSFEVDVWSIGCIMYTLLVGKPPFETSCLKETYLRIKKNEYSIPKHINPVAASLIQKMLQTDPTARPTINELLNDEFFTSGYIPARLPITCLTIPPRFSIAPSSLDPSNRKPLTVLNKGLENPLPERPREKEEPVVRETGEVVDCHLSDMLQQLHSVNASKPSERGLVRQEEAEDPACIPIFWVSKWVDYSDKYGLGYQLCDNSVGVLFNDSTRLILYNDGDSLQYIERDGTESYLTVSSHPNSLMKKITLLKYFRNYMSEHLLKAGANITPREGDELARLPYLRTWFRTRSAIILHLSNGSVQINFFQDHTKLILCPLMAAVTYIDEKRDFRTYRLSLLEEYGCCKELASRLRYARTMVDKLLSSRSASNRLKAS
Chain of UniProt P54760 (whole entry, looked up): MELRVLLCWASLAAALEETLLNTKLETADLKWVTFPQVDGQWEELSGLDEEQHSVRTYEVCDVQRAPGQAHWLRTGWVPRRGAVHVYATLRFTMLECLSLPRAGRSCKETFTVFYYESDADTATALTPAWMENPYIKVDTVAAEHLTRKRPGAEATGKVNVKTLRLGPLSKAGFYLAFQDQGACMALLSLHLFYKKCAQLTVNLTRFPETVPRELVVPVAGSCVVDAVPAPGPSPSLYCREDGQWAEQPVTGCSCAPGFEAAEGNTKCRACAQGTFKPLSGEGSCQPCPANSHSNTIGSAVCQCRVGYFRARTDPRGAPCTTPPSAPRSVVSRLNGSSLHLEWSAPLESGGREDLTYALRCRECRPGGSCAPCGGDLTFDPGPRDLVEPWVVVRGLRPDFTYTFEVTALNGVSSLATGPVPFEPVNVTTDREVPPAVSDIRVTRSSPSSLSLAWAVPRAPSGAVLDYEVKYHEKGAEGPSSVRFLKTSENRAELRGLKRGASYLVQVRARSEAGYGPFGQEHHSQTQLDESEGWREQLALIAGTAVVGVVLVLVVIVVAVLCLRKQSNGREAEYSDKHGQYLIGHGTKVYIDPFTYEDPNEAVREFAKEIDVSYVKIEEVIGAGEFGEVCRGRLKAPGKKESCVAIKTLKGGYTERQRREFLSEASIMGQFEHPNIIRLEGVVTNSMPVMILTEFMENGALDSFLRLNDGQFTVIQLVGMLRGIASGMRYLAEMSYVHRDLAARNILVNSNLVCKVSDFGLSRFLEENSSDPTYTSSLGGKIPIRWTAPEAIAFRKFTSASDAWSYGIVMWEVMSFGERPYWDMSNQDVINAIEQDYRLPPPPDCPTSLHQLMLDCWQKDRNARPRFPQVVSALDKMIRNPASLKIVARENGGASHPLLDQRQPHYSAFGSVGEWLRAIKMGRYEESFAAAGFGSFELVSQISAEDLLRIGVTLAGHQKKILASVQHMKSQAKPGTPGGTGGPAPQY
Chain of UniProt Q00535 (whole entry, looked up): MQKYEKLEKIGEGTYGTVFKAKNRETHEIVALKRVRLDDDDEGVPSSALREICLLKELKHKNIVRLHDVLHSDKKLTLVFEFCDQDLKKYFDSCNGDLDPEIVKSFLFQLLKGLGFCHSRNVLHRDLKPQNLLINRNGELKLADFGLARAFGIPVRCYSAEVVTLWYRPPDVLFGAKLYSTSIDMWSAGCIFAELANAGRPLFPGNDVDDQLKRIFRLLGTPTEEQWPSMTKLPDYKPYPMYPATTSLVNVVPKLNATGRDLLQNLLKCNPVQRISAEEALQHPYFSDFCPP
Chain of UniProt P07949 (whole entry, looked up): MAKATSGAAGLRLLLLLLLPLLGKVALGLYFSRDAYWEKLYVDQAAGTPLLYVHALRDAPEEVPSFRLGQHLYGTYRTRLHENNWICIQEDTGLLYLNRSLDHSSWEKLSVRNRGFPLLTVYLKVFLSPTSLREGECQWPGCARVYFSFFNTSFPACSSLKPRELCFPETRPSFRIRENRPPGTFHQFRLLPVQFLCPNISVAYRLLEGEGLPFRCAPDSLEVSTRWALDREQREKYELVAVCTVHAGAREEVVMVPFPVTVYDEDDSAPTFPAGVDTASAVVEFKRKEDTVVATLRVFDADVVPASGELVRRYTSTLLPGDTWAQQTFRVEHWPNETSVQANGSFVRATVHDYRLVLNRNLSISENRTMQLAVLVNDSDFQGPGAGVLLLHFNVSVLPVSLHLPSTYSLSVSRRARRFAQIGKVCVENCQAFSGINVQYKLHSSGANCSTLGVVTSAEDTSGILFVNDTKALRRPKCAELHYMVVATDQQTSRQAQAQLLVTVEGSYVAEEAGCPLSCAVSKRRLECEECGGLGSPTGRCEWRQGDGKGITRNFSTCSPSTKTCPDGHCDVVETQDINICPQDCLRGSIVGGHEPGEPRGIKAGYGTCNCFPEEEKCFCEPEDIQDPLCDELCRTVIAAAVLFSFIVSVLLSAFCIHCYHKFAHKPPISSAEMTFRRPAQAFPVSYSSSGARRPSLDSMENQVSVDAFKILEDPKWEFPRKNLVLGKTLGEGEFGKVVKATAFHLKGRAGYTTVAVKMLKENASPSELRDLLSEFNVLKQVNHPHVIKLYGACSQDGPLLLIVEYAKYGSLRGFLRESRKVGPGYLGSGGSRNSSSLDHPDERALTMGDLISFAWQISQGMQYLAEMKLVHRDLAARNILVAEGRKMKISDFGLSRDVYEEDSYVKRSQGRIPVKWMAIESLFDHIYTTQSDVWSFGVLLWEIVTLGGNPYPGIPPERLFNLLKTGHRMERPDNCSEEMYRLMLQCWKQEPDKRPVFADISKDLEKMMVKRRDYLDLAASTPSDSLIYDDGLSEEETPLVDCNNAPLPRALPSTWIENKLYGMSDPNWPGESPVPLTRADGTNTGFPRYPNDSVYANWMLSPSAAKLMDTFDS
Chain of UniProt P49840 (whole entry, looked up): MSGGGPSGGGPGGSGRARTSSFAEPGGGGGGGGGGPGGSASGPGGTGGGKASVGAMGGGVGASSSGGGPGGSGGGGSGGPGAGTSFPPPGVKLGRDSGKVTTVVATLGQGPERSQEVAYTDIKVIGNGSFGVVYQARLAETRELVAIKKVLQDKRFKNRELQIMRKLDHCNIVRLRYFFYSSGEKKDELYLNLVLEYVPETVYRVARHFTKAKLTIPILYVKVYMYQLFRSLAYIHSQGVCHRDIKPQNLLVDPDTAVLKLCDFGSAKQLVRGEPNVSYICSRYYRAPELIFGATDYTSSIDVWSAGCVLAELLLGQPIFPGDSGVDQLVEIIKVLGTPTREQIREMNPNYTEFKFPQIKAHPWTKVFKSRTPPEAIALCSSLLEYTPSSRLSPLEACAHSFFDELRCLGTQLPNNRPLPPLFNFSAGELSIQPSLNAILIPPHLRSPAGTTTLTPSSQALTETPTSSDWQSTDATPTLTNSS
Chain of UniProt P06213 (whole entry, looked up): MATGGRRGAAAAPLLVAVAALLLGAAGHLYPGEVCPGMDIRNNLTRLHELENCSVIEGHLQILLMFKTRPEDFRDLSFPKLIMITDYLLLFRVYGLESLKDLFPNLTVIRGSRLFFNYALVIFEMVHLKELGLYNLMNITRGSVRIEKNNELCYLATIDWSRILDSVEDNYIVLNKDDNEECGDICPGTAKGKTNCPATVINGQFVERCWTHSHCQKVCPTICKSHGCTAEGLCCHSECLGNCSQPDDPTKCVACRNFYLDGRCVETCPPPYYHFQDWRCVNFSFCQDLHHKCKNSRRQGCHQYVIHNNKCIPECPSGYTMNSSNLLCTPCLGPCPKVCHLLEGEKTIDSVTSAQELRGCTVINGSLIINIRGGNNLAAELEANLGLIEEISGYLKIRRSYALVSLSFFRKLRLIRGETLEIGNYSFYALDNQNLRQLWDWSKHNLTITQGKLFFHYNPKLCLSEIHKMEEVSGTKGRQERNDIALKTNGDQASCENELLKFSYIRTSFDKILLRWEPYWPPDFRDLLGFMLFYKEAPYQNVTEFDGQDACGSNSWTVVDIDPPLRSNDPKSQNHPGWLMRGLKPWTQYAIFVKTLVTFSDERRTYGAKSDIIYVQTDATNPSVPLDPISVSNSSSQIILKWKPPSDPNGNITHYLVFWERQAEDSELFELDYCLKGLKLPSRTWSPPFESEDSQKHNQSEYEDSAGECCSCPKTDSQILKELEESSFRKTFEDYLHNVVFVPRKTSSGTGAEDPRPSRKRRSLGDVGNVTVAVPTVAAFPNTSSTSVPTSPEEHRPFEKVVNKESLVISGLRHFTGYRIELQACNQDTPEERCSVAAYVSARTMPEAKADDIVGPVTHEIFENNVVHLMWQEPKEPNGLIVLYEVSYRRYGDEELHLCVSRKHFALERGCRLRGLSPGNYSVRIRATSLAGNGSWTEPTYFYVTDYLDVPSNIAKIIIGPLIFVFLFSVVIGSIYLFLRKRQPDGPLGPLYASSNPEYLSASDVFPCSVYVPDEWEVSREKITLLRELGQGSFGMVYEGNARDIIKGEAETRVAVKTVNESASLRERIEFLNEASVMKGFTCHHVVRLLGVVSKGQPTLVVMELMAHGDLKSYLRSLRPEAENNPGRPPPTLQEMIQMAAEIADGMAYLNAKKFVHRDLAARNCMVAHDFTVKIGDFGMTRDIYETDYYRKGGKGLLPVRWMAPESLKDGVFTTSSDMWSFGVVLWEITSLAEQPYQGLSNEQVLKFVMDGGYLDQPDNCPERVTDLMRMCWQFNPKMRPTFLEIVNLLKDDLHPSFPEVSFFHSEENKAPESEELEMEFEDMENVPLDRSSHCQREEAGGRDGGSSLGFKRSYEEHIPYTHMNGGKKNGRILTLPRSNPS

Set 1
Structure (SMILES): CNc1ncc2cc(-c3cc(OC)cc(OC)c3Cl)c(=O)n(CCc3ccc(NC(=O)C(C#N)=CC(C)(C)N4CCOCC4)cc3)c2n1
Observed: kinase activity
EPHA8 (Homo sapiens, UniProt P29322); 1 µM — inhibition: -3%.
It gave 1% for inhibition (SRPK3 (Homo sapiens, UniProt Q9UPE1); 0.1 µM).
The inhibition was 11% (RET (Homo sapiens, UniProt P07949); 0.1 µM).
It gave 3% for inhibition (CDK5 (Homo sapiens, UniProt Q00535); 1 µM).
It gave -2% for inhibition (CAMK1 (Homo sapiens, UniProt Q14012); 0.1 µM).
EPHB4 (Homo sapiens, UniProt P54760); 0.1 µM — inhibition: 1%.
It gave 3% for inhibition (PLK1 (Homo sapiens, UniProt P53350); 1 µM).
It gave 7% for inhibition (FES (Homo sapiens, UniProt P07332); 1 µM).

Set 2
SMILES: O=C(Nc1ccccc1)Nc1cccc(Oc2ccc3nccn3n2)c1
Observed: binding
Tested at: 1 µM
It gave 100% for remaining binding (TEC (Homo sapiens, UniProt P42680); competition with immobilised ligand).
The remaining binding was 43% (CDK15 (Homo sapiens, UniProt Q96Q40); competition with immobilised ligand).
It gave 100% for remaining binding (LATS1 (Homo sapiens, UniProt O95835)).
Insulin receptor (INSR, Homo sapiens, UniProt P06213) — remaining binding: 100%.
For PIK3CA (Homo sapiens, UniProt P42336, I800L): remaining binding read 100%.
The remaining binding was 100% (CSNK1A1 (Homo sapiens, UniProt P48729)).
GSK3A (Homo sapiens, UniProt P49840) — remaining binding: 50%.
For MAPK13 (Homo sapiens, UniProt O15264); competition with immobilised ligand: remaining binding read 100%.

Mixed results
`CC(C)OC(=O)[C@H](CCC(=O)C=[N+]=[N-])NC(=O)[C@H](Cc1c[nH]c2ccccc12)NC(=O)CN1CCN(C)CC1` gave a remaining compound of 2% (CES1-/- mouse GI tissue homogenate; 60 min).
With `CC(C)NC(=O)N1CCC(NC2=Nc3cc(F)ccc3N(CC(F)F)c3ccc(Cl)cc32)C1` (stereo in doubt) the viability was 103% (sample J colorectal tumour organoid; 0.1 µM; relative to: DMSO).
`CC(=O)N[C@@H](Cc1c[nH]c2ccccc12)C(=O)N[C@@H](CCC(=O)C=[N+]=[N-])C(N)=O` gave a DON concentration of 0.03 nmol/mL (P493B lymphoma cells; human plasma; concentration not given, plasma fraction of partition).
`Cn1cc(-c2cccc(CN3CCC4(CC3)COc3c4ccc4c3CN([C@H]3CCC(=O)NC3=O)C4=O)c2)cn1` gave an IL-2 level of 110 pg/mL and 119 pg/mL and 87.6 pg/mL (Jurkat; 1 nM, 24 h, with: CD3/CD28 beads, 1:4).
`CC(=O)N[C@@H](Cc1c[nH]c2ccccc12)C(=O)N[C@@H](CCC(=O)C=[N+]=[N-])C(=O)OC(CF)CF` gave a DON concentration of 0.21 nmol/mL (P493B lymphoma cells; human plasma; concentration not given, plasma fraction of partition).
The pIC50 of `CN(C)CC#Cc1ccc(OCCCc2sc(N3CCc4cccc(C(=O)Nc5nc6ccccc6s5)c4C3)nc2C(=O)O)c(F)c1` is reported as 5.05 (normal colon organoid sample F; 4 days).

For quick reference, copied from above (mixed results):
`CC(=O)N[C@@H](Cc1c[nH]c2ccccc12)C(=O)N[C@@H](CCC(=O)C=[N+]=[N-])C(N)=O` gave a DON concentration of 0.03 nmol/mL (P493B lymphoma cells; human plasma; concentration not given, plasma fraction of partition).
`Cn1cc(-c2cccc(CN3CCC4(CC3)COc3c4ccc4c3CN([C@H]3CCC(=O)NC3=O)C4=O)c2)cn1` gave an IL-2 level of 110 pg/mL and 119 pg/mL and 87.6 pg/mL (Jurkat; 1 nM, 24 h, with: CD3/CD28 beads, 1:4).
